# Assay results of several laboratories.
# A part holds a random share of what one study measured.

# Series 1
# Target: Protein C-ets-1 (ETS1, Homo sapiens, UniProt P14921, residues 1-441, full length assumed)
# Sequence of UniProt P14921 (whole entry, looked up): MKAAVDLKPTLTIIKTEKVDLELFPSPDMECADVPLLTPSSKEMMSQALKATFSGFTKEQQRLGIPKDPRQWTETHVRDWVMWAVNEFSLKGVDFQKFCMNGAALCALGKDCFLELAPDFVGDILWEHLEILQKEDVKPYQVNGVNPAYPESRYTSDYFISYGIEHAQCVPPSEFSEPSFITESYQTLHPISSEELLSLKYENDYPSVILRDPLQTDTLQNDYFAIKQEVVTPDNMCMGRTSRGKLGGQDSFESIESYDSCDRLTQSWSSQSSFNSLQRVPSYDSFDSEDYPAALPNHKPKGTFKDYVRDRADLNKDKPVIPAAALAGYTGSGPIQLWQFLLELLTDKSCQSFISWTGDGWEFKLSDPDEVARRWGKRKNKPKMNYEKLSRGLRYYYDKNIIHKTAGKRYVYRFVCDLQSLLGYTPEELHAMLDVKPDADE
# Method: protein-binding microarray
# Form: double-stranded DNA, one strand shown
# Sample: in vitro
# Tested at: not given
# Notes: k-mer, scored over probes, only values ≥0.25
# Direction: higher = stronger binding
Strand,E-score
AATGCGGA,0.311
TACCGGAA,0.49
CCGGGGGA,0.37
GAGGAAGC,0.416
GGATGTCA,0.425
ACGGAAAA,0.303
ACGGACGT,0.406
TACCGGGA,0.358
CGGAATTA,0.258
CAGGATAC,0.418
ACAGGATG,0.473
ATTTCCAG,0.354
GGATGAAC,0.291
CCCCGTCA,0.27
TATCGGAA,0.274
GGACGTCC,0.395
AAGTATCC,0.273
GGATGCAC,0.371
CCTCCCCG,0.319
CTACATCC,0.458

# Series 2
# Target: RING finger protein unkempt homolog, zinc fingers 1-6, GST-SBP tag (UNK, Homo sapiens, UniProt Q9C0B0, residues 30-357)
# Sequence of UniProt Q9C0B0 (30-357, looked up): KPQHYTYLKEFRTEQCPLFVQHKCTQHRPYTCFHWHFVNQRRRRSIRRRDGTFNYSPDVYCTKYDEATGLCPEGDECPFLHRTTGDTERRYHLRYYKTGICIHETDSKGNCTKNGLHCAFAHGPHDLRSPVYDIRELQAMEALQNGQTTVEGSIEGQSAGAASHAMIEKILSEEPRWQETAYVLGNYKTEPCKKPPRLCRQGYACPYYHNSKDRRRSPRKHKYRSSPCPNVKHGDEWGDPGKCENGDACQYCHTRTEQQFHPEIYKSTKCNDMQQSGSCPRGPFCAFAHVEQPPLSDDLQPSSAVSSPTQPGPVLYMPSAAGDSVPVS
# Method: RNA Bind-n-Seq
# Form: RNA
# Sample: in vitro
# Tested at: not given
# Notes: RNA with constant flanks, human-mouse chimeric sites, ends assumed
# Reference: input RNA pool
# Direction: higher = stronger binding
# Constant ends, left off below: GGGAGUUCUACAGUCCGACGAUC … CAACAGAGGAUUGAGCAUCA
Strand,bound/input enrichment
UGUGCAUAUGAUGCUUGAGAUGGUUUUUGCAGAUGCAGAAAUCGCUGCAAGGUAAUCACAAUAGAUACAAGCGGUAUUUUAAACCUUUGAAAUAAAUGGAUGUAACUGUACCUUGGUACA,0.222 ratio
GAUCCACAGUGGUCUGAGGAGCAACUCAUUGCUGCAAAAUUCUGUUUUGCUGGACUUGUUAUAGGGCAGACUGAAGUGGACAUCAUGAGUCAUGCCACACAAGCUAUAUUUGAAAUACUG,0.182 ratio
GAGUCGAGCAAACUUGAAACAAUUCGUUAUCUUGCAGCCUCAGUGUUCACUUGCUUGGCGAUAGCAUUGGGGUUUUAUAGGUUCUGGAAGGAGAACUUUAAUGCUCAUCCUGCUGUGUGC,0.299 ratio
UCAACUGACAACAUCAAAUACCAGCCUAAAGGGGGGCAGGUACAAAUUGUUACUAAGAAAAUAGACCUAAGCCAUGUGACAUCCAAAUGUGGCUCUCUGAAGAACAUCCGCCACAGGCCA,0.362 ratio
CCCCAAUACCAUUUGCAGGUCUGGAACUGCACUCUCUUUUUUAAAAAACAUGUAUACAUUUUAGGGCUGUAGACUUAUUUUCCUGGUUUUGUUUUUCAUUGCUGACUUUGAGCACAAGAA,1.78 ratio
UUACCCGAGAACGAGGAUGAGCUGGAGAGCACCAACAGGCGCUACACCAAGAGGGACUGCAGCACUUUCCUCAGAACUAGCGAGACGGGCAUCGUGGAUCAGGUUAUGGUCACUCUCAAC,0.134 ratio
UAACCACAUCAAGAUGGUUGGGAAGCUGAAGCAGAACUUACUCUUGGCAUGUCUGGUGAUUAGUUCUGUGACUGUGUUUUACCUGGGCCAGCAUGCCAUGGAGUGCCAUCACCGAAUAGA,0.489 ratio
AGAUAUUAAGUAUUUUGAAAAAACUCGAACAGAUUUGACAAGGGUAGCCAGCUUGGAGUCUAGCAACUUGCCAAUGUUGCUUACCAACUGGGGGCUUGUUUUUCUUUUCUUCUUUCAAAU,0.282 ratio

# Series 3
# Target: RNA binding protein fox-1 homolog 2, RRM domain, GST-SBP tag (RBFOX2, Homo sapiens, UniProt O43251-10, residues 100-194)
# Method: RNA Bind-n-Seq
# Form: RNA
# Sample: in vitro
# Tested at: 365 nM
# Notes: natural RNA segment, single round, ends assumed
# Reference: no-protein control
# Direction: higher = stronger binding
# Constant ends, left off below: GGGAGUUCUACAGUCCGACGAUC … UGGAAUUCUCGGGUGCCAA
# Target sequence (chain): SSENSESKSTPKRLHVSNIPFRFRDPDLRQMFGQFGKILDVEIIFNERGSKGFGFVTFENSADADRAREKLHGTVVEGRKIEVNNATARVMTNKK
Strand,RBNS enrichment (R)
CUGUACAGAGGACCAUGGAGCCUUCCUGAAAGGUCUCGGCCAUCUGUUCUUCUCCACCUCCUCAUGGGAUAGGAACUGAAAGAGAACUCAAGGGUUGUCACUUUCCUAGA,0.27
CCUGCCAUGCUGUGGCCAACUGUUUCACUGGAGCAAGAAAGAGAUCUCAUAGGACGGAGGGGGAAAUGGUUUCCCUCCAAGCUUGGGUCAGUGUGUUAACUGCUUAUCAG,0.669
GGAAUGGAUCACGUAGACAUGUAACCCAGCAGCAGUUUGCUUCUGUUGUCCACUGAUUAAUCAGCCUAUGUGCCUGACACUGGUCUUGCAGUACAACUGGAAGCCAAAAC,0.212
AGUAGACAGAAGAGGAAGAAAGAACAGAUGUUCACAGCUGAAUCUCAGUGAACAGAAUAGCAGUCCCUGGAUGGCAGUCUGCCUAAAGAUUCCUUUCCCUGCCUUCUCCC,0.353
AACAUGGGCAUUGGGUUCUAAAGGACUAACAUAAAAUCUGUGAAUUAAAAAAGCUCAAUGCAUUGUCUUGUGGAGGAUGAAUAGAUGUGAUCACUGAGACAGCCACUUGG,0.675
CAAAUUAUCUGGGCUUCAGAAGCCAUCCCUUUGCUAUGCUUGACACCAAACUCAGUCACUCCACCUCAGUCAUGACCUGAUAUAAAAGCCGUGCUAGUUUCCCGAGUUCA,0.527
CAGCCAAGGCUCUGUUUAUGCUUUUGGGGGGCAUAUAUUGGGUUCCAUUCUCACCUAUCCACACAACAUAUCCGUAUAUAUCCCCUCUACUCUUACUUCCCCCAAAUUUA,1.03
CUGCUAUUAUUCCUUGCUGUUUAUAGUGCUUUUGUGUAGUAAAUGCUCACUCCCCAAGCUUUAUGGAGCUUCCAGCAACAGCCAUGAACUUGAGGUUCCUUGAAUUUGCG,0.668

# Series 4
# Target: Sal-like protein 4, full length isoform B (SALL4, Homo sapiens, UniProt Q9UJQ4-2, residues 1-616)
# Method: universal PBM
# Form: double-stranded DNA, one strand shown
# Sample: in vitro
# Tested at: not given
# Notes: 8-mer, flanks averaged, mean of replicates
# Direction: higher = stronger binding
Strand,E-score
GAGACGAC,-0.251
GCTCGTCA,-0.17
GGTAATCA,0.0524
CCTTACAG,-0.0319
ATAGGCAG,0.287
CTGTTGTA,0.0829
GAATCAAC,0.0937
AATGCAAG,0.136
AGATACCT,-0.0612
TCCTTAAA,0.164
ACTGTTTC,-0.0211
CAAGATGA,0.0158
GTTTAGAA,0.184
ACGCTGAA,-0.0956
CGCCAACG,-0.314
ATCTCCAT,0.0749
CTGTAGCC,-0.232
AGTTCCAC,0.053
AATCACCG,-0.093
GACAATGA,-0.0235
CGAGGCGC,-0.217
GCTGAGAC,-0.152
CCACGACC,-0.214
ACAATAGA,0.245
GAGACCCC,-0.221

# Repeated from above (series 3):
Strand,RBNS enrichment (R)
AGUAGACAGAAGAGGAAGAAAGAACAGAUGUUCACAGCUGAAUCUCAGUGAACAGAAUAGCAGUCCCUGGAUGGCAGUCUGCCUAAAGAUUCCUUUCCCUGCCUUCUCCC,0.353
CAAAUUAUCUGGGCUUCAGAAGCCAUCCCUUUGCUAUGCUUGACACCAAACUCAGUCACUCCACCUCAGUCAUGACCUGAUAUAAAAGCCGUGCUAGUUUCCCGAGUUCA,0.527
CAGCCAAGGCUCUGUUUAUGCUUUUGGGGGGCAUAUAUUGGGUUCCAUUCUCACCUAUCCACACAACAUAUCCGUAUAUAUCCCCUCUACUCUUACUUCCCCCAAAUUUA,1.03
AACAUGGGCAUUGGGUUCUAAAGGACUAACAUAAAAUCUGUGAAUUAAAAAAGCUCAAUGCAUUGUCUUGUGGAGGAUGAAUAGAUGUGAUCACUGAGACAGCCACUUGG,0.675
CUGCUAUUAUUCCUUGCUGUUUAUAGUGCUUUUGUGUAGUAAAUGCUCACUCCCCAAGCUUUAUGGAGCUUCCAGCAACAGCCAUGAACUUGAGGUUCCUUGAAUUUGCG,0.668
